Experimental data pooled from the literature.
Protocols differ between the studies behind these lines. Numbers after ± are the reported error.
SPT15/TOA1/TOA2/SUA7 1-240; 1-286; 1-122; 1-345: SPT15/TOA1/TOA2/SUA7 1-240; 1-286; 1-122; 1-345 (Saccharomyces cerevisiae)
Fibroin-modulator-binding protein-1: Fibroin-modulator-binding protein-1 99-193 (Bombyx mori, UniProt Q5FBS0)
YAP1 full length assumed: YAP1 full length assumed (Saccharomyces cerevisiae, UniProt P19880)
UniProt P19880, sequence (whole entry, looked up): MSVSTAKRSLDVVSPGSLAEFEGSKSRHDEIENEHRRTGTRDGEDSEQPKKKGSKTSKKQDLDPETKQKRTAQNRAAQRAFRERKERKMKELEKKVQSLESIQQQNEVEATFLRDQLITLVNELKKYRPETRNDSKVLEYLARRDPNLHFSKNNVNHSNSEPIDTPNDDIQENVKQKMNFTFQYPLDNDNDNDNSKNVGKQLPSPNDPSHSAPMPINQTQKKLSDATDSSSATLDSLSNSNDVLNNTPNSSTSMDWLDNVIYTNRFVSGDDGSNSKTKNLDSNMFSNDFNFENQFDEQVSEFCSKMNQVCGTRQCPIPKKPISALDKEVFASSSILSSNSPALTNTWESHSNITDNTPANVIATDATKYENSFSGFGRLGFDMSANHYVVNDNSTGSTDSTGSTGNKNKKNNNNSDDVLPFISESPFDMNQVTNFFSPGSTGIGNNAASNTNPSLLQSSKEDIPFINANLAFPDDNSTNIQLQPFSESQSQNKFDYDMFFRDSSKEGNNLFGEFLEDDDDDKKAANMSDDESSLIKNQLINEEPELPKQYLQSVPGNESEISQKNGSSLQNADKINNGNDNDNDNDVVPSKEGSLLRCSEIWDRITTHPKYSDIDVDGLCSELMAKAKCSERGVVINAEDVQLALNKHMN
allR full length assumed: allR full length assumed (Escherichia coli, UniProt P0ACN4)
UniProt P0ACN4, sequence (whole entry, looked up): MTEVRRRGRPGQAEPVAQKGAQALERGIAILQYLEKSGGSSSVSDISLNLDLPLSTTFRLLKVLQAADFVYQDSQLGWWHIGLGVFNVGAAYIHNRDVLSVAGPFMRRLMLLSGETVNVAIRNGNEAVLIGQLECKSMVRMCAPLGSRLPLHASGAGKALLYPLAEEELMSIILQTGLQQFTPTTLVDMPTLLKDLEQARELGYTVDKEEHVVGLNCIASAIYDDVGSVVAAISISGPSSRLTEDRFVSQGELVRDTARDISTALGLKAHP
RECQL: RECQL 49-616 (Homo sapiens, UniProt P46063)
UniProt P46063, sequence (whole entry, unmodified, looked up): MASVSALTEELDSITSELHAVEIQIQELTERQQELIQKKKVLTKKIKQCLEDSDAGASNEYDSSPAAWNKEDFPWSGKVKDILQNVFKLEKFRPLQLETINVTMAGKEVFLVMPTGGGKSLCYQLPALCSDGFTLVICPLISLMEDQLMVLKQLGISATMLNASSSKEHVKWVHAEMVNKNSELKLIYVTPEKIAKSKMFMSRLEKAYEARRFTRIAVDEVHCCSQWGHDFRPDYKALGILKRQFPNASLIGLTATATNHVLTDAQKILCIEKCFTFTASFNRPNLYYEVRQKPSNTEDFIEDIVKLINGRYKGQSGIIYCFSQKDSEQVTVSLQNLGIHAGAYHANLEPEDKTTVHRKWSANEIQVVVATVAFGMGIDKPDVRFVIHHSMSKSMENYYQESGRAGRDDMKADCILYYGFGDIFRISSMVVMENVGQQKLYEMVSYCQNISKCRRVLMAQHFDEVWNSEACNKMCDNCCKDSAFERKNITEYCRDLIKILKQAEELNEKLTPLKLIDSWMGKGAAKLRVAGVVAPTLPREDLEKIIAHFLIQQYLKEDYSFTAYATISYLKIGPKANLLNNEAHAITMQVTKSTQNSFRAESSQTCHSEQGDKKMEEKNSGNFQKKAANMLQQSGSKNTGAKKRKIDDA
T1: KU70/KU80 KU70 1-592; KU80 1-680 (Arabidopsis thaliana); chain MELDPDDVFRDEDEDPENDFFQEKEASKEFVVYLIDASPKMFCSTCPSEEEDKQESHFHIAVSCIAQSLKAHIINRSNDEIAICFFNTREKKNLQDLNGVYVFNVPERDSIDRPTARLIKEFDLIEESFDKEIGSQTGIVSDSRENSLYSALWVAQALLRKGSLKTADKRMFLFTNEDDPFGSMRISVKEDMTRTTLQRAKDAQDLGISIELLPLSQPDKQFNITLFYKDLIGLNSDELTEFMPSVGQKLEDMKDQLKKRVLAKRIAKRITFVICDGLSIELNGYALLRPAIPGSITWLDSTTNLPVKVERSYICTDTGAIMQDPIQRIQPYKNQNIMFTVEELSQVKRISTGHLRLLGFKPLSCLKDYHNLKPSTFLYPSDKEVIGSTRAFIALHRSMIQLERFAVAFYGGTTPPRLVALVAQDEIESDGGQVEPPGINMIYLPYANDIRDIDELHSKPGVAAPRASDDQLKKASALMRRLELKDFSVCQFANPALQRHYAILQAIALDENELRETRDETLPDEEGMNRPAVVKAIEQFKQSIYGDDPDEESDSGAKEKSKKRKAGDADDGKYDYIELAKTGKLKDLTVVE; chain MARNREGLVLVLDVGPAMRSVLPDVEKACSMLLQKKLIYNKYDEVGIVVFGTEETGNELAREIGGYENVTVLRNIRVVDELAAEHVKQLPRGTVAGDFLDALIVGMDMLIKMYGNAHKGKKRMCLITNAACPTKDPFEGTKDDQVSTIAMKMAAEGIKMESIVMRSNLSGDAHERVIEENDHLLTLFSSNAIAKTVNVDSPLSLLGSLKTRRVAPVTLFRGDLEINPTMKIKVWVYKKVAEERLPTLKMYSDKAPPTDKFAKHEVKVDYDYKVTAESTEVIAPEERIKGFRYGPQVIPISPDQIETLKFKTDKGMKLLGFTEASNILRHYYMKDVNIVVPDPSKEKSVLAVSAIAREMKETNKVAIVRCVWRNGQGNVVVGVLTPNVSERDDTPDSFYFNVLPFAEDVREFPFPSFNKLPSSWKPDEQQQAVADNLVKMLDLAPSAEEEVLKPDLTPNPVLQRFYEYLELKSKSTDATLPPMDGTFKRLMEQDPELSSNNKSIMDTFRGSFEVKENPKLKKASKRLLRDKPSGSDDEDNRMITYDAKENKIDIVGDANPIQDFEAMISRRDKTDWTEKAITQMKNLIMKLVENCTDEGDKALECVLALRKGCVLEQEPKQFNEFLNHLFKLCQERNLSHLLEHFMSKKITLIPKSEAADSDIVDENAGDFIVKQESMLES
UniProt Q4VGL6, sequence (whole entry, looked up): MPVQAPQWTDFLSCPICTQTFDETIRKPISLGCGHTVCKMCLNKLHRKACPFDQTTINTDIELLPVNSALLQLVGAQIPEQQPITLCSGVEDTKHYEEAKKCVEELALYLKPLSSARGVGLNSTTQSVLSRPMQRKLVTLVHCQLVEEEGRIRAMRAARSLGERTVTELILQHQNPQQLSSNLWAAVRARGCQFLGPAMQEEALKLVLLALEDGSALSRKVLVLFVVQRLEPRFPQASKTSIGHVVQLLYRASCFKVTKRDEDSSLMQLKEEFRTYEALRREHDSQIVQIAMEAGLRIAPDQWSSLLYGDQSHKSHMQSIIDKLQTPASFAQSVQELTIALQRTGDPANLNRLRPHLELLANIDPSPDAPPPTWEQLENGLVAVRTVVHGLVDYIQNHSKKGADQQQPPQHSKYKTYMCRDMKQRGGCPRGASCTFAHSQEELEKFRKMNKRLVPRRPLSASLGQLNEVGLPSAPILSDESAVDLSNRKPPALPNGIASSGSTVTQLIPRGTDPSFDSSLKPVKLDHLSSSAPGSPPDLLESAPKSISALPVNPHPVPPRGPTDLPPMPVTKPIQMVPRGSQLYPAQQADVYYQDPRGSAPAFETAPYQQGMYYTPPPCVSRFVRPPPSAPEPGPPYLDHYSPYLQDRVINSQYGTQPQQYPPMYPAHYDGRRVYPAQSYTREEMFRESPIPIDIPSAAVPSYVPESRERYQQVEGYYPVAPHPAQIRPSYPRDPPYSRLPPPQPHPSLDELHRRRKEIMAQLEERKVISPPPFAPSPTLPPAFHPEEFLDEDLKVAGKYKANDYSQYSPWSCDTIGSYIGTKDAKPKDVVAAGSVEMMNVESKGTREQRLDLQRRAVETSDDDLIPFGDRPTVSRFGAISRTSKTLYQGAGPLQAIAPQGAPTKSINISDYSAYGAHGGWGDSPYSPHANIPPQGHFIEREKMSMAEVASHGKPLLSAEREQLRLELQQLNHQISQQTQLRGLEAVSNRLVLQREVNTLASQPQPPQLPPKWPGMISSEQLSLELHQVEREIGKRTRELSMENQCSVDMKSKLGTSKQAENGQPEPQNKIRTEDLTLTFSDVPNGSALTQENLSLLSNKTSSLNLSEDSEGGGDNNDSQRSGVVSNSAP
UniProt P13500, sequence (whole entry, looked up): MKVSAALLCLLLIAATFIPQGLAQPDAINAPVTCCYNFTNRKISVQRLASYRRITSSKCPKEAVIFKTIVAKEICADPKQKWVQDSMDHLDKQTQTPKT
UniProt Q8IUX4, sequence (whole entry, looked up): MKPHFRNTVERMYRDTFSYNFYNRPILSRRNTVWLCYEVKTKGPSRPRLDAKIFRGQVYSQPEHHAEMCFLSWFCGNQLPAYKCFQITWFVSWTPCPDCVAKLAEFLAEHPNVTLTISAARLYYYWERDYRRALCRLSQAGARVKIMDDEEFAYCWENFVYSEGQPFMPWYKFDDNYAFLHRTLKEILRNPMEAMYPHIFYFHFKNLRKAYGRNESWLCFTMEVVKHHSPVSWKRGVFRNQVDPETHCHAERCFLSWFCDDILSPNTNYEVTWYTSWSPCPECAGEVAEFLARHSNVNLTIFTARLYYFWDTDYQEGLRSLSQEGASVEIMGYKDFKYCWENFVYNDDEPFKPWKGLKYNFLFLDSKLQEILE
UniProt P01185, sequence (whole entry, looked up): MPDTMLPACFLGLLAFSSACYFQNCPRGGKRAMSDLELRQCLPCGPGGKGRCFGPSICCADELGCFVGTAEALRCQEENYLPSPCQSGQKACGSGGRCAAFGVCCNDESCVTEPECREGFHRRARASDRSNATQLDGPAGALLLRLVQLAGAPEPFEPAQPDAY
UniProt Q9BQ39, sequence (whole entry, looked up): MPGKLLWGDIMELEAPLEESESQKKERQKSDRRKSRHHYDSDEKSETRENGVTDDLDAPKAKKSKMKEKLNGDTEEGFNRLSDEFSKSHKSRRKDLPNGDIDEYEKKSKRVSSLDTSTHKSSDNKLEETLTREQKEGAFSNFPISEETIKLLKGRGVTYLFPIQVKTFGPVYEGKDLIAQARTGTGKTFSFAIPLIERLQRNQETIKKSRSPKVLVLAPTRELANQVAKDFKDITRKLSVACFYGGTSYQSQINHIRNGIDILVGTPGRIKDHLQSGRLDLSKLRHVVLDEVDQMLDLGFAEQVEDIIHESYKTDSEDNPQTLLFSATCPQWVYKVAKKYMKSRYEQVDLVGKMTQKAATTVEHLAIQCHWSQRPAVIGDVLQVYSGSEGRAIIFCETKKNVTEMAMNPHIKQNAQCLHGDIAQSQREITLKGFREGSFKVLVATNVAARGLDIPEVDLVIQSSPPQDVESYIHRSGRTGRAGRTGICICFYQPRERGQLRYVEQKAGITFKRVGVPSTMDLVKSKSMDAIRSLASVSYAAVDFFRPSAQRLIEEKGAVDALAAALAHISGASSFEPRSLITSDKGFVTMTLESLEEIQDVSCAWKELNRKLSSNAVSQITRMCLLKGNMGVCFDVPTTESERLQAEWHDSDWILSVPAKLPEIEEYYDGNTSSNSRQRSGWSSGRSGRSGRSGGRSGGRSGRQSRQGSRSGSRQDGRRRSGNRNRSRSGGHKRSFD
UniProt Q99383, sequence (whole entry, looked up): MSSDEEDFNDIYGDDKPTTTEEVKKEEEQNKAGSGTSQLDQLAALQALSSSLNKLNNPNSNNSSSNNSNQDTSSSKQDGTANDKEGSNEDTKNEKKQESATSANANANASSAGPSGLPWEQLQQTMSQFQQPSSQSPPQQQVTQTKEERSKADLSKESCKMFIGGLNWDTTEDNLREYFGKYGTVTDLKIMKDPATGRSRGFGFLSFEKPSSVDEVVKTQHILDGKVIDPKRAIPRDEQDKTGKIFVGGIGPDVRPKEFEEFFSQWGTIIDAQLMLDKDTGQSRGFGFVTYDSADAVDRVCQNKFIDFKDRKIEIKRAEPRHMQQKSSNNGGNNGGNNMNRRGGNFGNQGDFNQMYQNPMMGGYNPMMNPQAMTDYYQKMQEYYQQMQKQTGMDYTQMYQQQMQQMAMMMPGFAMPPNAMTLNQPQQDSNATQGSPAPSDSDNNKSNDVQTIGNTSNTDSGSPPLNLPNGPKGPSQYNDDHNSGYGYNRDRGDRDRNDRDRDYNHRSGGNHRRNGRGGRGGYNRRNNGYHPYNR

For `TCCTGAAGGGGCGCATATAAAAGGTCCTATCGTCGTCAAGTCAATCGGTCC (dsDNA; 5'-amino-C6 primer)`, the Kd was 1.7 ± 0.2 nM (SPT15/TOA1/TOA2/SUA7 1-240; 1-286; 1-122; 1-345; array; double-stranded DNA, one strand shown; TBP:TFIIA:TFIIB ternary complex).
`CAGGCAGGCAGG (dsDNA)` has a Kd of 25600 nM (Fibroin-modulator-binding protein-1; ITC; double-stranded DNA, one strand shown).
`CGCATAATTACCCAATTACCGAATTACCTAATTACGCAATTACGGAATTACGTAACTCCGGCGGTATGAC (dsDNA)` gave a Kd of 330 ± 40 nM (YAP1 full length assumed; MITOMI; double-stranded DNA, one strand shown; not purified).
`ACCTAGATAGAGCCA (dsDNA; blunt)` gave a Kd of 180 nM (T1, KU70/KU80 KU70 1-592; KU80 1-680 (Arabidopsis thaliana); PIFE stopped-flow; double-stranded DNA, one strand shown).
With `AACAAACAAACA (dsDNA)` the Kd was 4930 ± 362 nM (Fibroin-modulator-binding protein-1; ITC; double-stranded DNA, one strand shown).
`DNA 1 TGGGTGGGTAGGGTGGGTAGGGGAGGAT / DNA 2 ATCCTCCCCTA (DNA; intramolecular parallel G4, 5' overhang, 11-bp duplex)` gave a Kd of 4 ± 0.7 nM (REV1 330-833 M656V (Homo sapiens, UniProt Q9UBZ9); FP; folded DNA; KCl 100 mM).
`TACTTCAGTTGTGAAGTGTAACAAGGTCTTATAATTCAAGTCAATCGGTCC (dsDNA; 5'-amino-C6 primer)` gave a Kd of 3.68 ± 0.7 nM (SPT15/TOA1/TOA2/SUA7 1-240; 1-286; 1-122; 1-345; array; double-stranded DNA, one strand shown; TBP:TFIIA:TFIIB ternary complex).
`CAAAATATGTCATCTCTGGCGGAAAAGTTTTCCACTGACAACGCGGGCATTGCCTACTTAA (dsDNA)` has a Kd of 53.1 nM (allR full length assumed; BLI; double-stranded DNA, one strand shown).
With `GTTCCTGAAGGGGGGGCTATAAACGGGGGTGGGGGTCAAGTCAATCGGTCC (dsDNA; 5'-amino-C6 primer)` the Kd was 1.79 ± 0.18 nM (SPT15/TOA1/TOA2/SUA7 1-240; 1-286; 1-122; 1-345; array; double-stranded DNA, one strand shown; TBP:TFIIA:TFIIB ternary complex).
`ACAGACAGACAG (dsDNA)` gave a Kd of 6110 ± 982 nM (Fibroin-modulator-binding protein-1; ITC; double-stranded DNA, one strand shown).
`CGCCGCCTAAGGCGATGGCGGTAGCCA (DNA stem-loop; stem-loop)` has a Kd of 3.98 nM (CCL2 24-99 (Homo sapiens, UniProt P13500); BLI; folded DNA).
The Kd of `CTCTCGGGACGACGTCCAAGTAGTACGTTTAATTAGGATTTCCGAATTATTGGCATGCGTCGTCCC (DNA; stem-loop)` is reported as 543 nM (arginine vasopressin 20-28 (Homo sapiens, UniProt P01185); bulk solution assay; folded DNA).
`TCCTGAAGGGGAGCCTATAAAAGGTCCTATCGTCGTCAAGTCAATCGGTCC (dsDNA; 5'-amino-C6 primer)` gave a Kd of 2.47 ± 0.3 nM (SPT15/TOA1/TOA2/SUA7 1-240; 1-286; 1-122; 1-345; array; double-stranded DNA, one strand shown; TBP:TFIIA:TFIIB ternary complex).
`AGCCAGCCAGCC (dsDNA)` has a Kd of 4030 ± 797 nM (Fibroin-modulator-binding protein-1; ITC; double-stranded DNA, one strand shown).
For `DNA 1 GGATCTCGACGCTCTCCCTT / DNA 2 GTCGAGATCC (dsDNA; 3' 10-nt overhang, blunt end)`, the Kd was 73 ± 7 nM (RECQL; fluorescence anisotropy; double-stranded DNA; Mg2+ 5 mM, added: ADPNP 2 mM).
The Kd of `DNA 1 CACTGGCCGTCTTACGGTCGCTCTGCTCGACG / DNA 2 CGACCGTAAGACGGCCAGTG (dsDNA; 20 bp, 3' 12 nt overhang)` is reported as 58.3 ± 19.3 nM (RECQL 63-592 R203A (Homo sapiens, UniProt P46063); fluorescence anisotropy; double-stranded DNA; added: Mg2+ 3 mM).
With `CTCAGGAATTCCTATCAAGTAATGTGGAGCTCAGTTCAAGTCAATCGGTCC (dsDNA; 5'-amino-C6 primer)` the Kd was 2.13 ± 0.33 nM (SPT15/TOA1/TOA2/SUA7 1-240; 1-286; 1-122; 1-345; array; double-stranded DNA, one strand shown; TBP:TFIIA:TFIIB ternary complex).
`ATTTATATTATTTATTCATATTTATATTTA (ssDNA)` gave a Kd of 146 ± 4.7 nM (APOBEC3F 1-185 (Homo sapiens, UniProt Q8IUX4); EMSA; single-stranded DNA).
`ATGTCACAGAAGCAAAGTACGAATCAGAATCAAAATCAAGTCAATCGGTCC (dsDNA; 5'-amino-C6 primer)` has a Kd of 1.92 ± 0.31 nM (SPT15/TOA1/TOA2/SUA7 1-240; 1-286; 1-122; 1-345; array; double-stranded DNA, one strand shown; TBP:TFIIA:TFIIB ternary complex).
The Kd of `AGAAAGAAAGAA (dsDNA)` is reported as 3480 ± 348 nM (Fibroin-modulator-binding protein-1; ITC; double-stranded DNA, one strand shown).
For `GSGAGHETIV`, the binding intensity was 0.311 (human MAGI1-3/6 PDZ construct (MBP fusion); automated holdup; peptide, purified PDZ protein; concentration not given, unit not given; baseline: biotin control resin, higher = stronger binding).
`CTCAGGAATTCCTCTAAAGTAATGTGGAGCTCAGTTCAAGTCAATCGGTCC (dsDNA; 5'-amino-C6 primer)` has a Kd of 2.11 ± 0.33 nM (SPT15/TOA1/TOA2/SUA7 1-240; 1-286; 1-122; 1-345; array; double-stranded DNA, one strand shown; TBP:TFIIA:TFIIB ternary complex).
The Kd of `GGATCTCGACGCTCTCCCTT (dsDNA)` is reported as 571 ± 57 nM (RECQL; fluorescence anisotropy; double-stranded DNA, one strand shown; Mg2+ 5 mM, added: ADPNP 2 mM).
`AGATCTCCATCCTTGGGATATGGCTACCAGAAAGTAAAGGGACGATACAAGTCAAGTGAGA (dsDNA)` has a Kd of 1400 nM (allR full length assumed; BLI; double-stranded DNA, one strand shown).
`UUGGUAGUCACCCCAAAUUGUUAUU (ssRNA)` has a Kd of 5390 ± 2640 nM (DDX50 full length assumed (Homo sapiens, UniProt Q9BQ39); MST; RNA; added: glucose 350 µM).
`TCCTGAAGGGGCACCCTAGCTTGGTCCTATCGTCGTCAAGTCAATCGGTCC (dsDNA; 5'-amino-C6 primer)` gave a Kd of 3.14 ± 0.38 nM (SPT15/TOA1/TOA2/SUA7 1-240; 1-286; 1-122; 1-345; array; double-stranded DNA, one strand shown; TBP:TFIIA:TFIIB ternary complex).
For `TAAGACACGATGCGATAAAATCTGTTTGTAAAATTTATTAAGGGTACAAATTGCCCTAGC (dsDNA)`, the Kd was 510 ± 27 nM (CGAS 161-522 K394E (Homo sapiens, UniProt Q8N884); fluorescence anisotropy; double-stranded DNA, one strand shown).
`GSGAGQITKV` has a binding intensity of 0.227 (human MAGI1-3/6 PDZ construct (MBP fusion); automated holdup; peptide, crude extract; concentration not given, corrected by standard peak, unit not given; baseline: biotin control resin, higher = stronger binding).
The Kd of `UAUUAUAU (ssRNA)` is reported as 14000 ± 800 nM (Rc3h1 411-454 (Mus musculus, UniProt Q4VGL6); ITC; RNA; added: Zn2+).
The Kd of `UAUAUAUA (ssRNA)` is reported as 183 nM (HRP1 1-534 (Saccharomyces cerevisiae, UniProt Q99383); fluorescence anisotropy; RNA; apparent).
For `TGGATGGATGGA (dsDNA)`, the Kd was 1130 ± 59.6 nM (Fibroin-modulator-binding protein-1; ITC; double-stranded DNA, one strand shown).
With `CGCGGGAATTAGGTAATTAGTCAATTAGTGAATTAGTTAATTATACAATTATAGACTCCGGCGGTATGAC (dsDNA)` the Kd was 1800 ± 100 nM (YAP1 full length assumed; MITOMI; double-stranded DNA, one strand shown; not purified).
The Kd of `RNA 1 UAAGACACGAUGCGAUAAAAUCUG / RNA 2 CAGAUUUUAUCGCAUCGUGUCUUA (dsRNA)` is reported as 798 ± 64 nM (CGAS 161-522 K394E (Homo sapiens, UniProt Q8N884); fluorescence anisotropy; double-stranded RNA).
`CTGACTGACTGA (dsDNA)` gave a Kd of 5370 ± 543 nM (Fibroin-modulator-binding protein-1; ITC; double-stranded DNA, one strand shown).
For `TAAGACACGATGCGATAAAATCTG (dsDNA)`, the Kd was 194 ± 14.7 nM (CGAS 1-522 K394E (Homo sapiens, UniProt Q8N884); fluorescence anisotropy; double-stranded DNA, one strand shown).
The Kd of `TACATACATACA (dsDNA)` is reported as 642 ± 57.3 nM (Fibroin-modulator-binding protein-1; ITC; double-stranded DNA, one strand shown).

Repeated from above:
`TCCTGAAGGGGCACCCTAGCTTGGTCCTATCGTCGTCAAGTCAATCGGTCC (dsDNA; 5'-amino-C6 primer)` gave a Kd of 3.14 ± 0.38 nM (SPT15/TOA1/TOA2/SUA7 1-240; 1-286; 1-122; 1-345; array; double-stranded DNA, one strand shown; TBP:TFIIA:TFIIB ternary complex).
For `TAAGACACGATGCGATAAAATCTGTTTGTAAAATTTATTAAGGGTACAAATTGCCCTAGC (dsDNA)`, the Kd was 510 ± 27 nM (CGAS 161-522 K394E (Homo sapiens, UniProt Q8N884); fluorescence anisotropy; double-stranded DNA, one strand shown).
`GSGAGQITKV` has a binding intensity of 0.227 (human MAGI1-3/6 PDZ construct (MBP fusion); automated holdup; peptide, crude extract; concentration not given, corrected by standard peak, unit not given; baseline: biotin control resin, higher = stronger binding).
The Kd of `UAUUAUAU (ssRNA)` is reported as 14000 ± 800 nM (Rc3h1 411-454 (Mus musculus, UniProt Q4VGL6); ITC; RNA; added: Zn2+).
The Kd of `UAUAUAUA (ssRNA)` is reported as 183 nM (HRP1 1-534 (Saccharomyces cerevisiae, UniProt Q99383); fluorescence anisotropy; RNA; apparent).
For `TGGATGGATGGA (dsDNA)`, the Kd was 1130 ± 59.6 nM (Fibroin-modulator-binding protein-1; ITC; double-stranded DNA, one strand shown).
